{"data": "Results gathered from unrelated publications", "note": "Numbered parts are unrelated; each lists some results of a single study."}
{"data": "Sample 1", "target": "Histone acetyltransferase KAT6A, both winged helices, GST fusion (KAT6A, Homo sapiens, UniProt Q92794, residues 1-181)", "technique": "protein binding microarray", "form": "double-stranded DNA, one strand shown", "matrix": "in vitro", "tested at": "not given", "notes": "8-mer, flanks averaged, mean of 2 arrays, mostly near background", "baseline": "not given", "reading": "higher = stronger binding", "Residues (chain)": "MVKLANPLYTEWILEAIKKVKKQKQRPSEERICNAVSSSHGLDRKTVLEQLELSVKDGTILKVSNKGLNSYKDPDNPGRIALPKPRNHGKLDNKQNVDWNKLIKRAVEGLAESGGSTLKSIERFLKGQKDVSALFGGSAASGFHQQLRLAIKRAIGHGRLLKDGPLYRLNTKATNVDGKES"}
{"Strand": "AGAGACCT", "E-score": -0.121}
{"Strand": "AATAAACC", "E-score": -0.163}
{"Strand": "GGCCGGAC", "E-score": 0.0679}
{"Strand": "CCGAGAAG", "E-score": 0.125}
{"Strand": "GGGTCCGA", "E-score": 0.142}
{"data": "Sample 2", "target": "Protein C-ets-1 (ETS1, Homo sapiens, UniProt P14921, residues 1-441, full length assumed)", "technique": "protein-binding microarray", "form": "double-stranded DNA, one strand shown", "matrix": "in vitro", "tested at": "not given", "notes": "k-mer, scored over probes, only values ≥0.25", "reading": "higher = stronger binding", "sequence of UniProt P14921 (whole entry, looked up)": "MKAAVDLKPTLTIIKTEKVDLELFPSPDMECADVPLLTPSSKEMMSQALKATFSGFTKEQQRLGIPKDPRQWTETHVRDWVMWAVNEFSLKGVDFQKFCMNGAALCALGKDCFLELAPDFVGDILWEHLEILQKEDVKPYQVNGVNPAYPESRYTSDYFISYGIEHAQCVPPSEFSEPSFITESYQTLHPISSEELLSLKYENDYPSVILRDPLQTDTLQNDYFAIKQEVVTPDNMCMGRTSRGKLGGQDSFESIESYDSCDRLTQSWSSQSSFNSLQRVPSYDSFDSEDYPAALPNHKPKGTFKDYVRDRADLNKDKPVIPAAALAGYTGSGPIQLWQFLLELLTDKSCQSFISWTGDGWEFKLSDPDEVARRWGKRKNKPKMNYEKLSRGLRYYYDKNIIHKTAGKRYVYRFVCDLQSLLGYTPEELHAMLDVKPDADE"}
{"Strand": "ACCGGAAC", "E-score": 0.472}
{"Strand": "CGGTTCCC", "E-score": 0.267}
{"Strand": "CGCAGGAA", "E-score": 0.417}
{"Strand": "CGAAGGAA", "E-score": 0.267}
{"data": "Sample 3", "target": "RNA binding protein fox-1 homolog 2, RRM domain, GST-SBP tag (RBFOX2, Homo sapiens, UniProt O43251-10, residues 100-194)", "technique": "RNA Bind-n-Seq", "form": "RNA", "matrix": "in vitro", "tested at": "365 nM", "notes": "natural RNA segment, single round, ends assumed", "baseline": "no-protein control", "reading": "higher = stronger binding", "Construct (chain)": "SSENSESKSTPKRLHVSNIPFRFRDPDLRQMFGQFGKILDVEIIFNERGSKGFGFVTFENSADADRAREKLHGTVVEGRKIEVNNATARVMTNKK"}
{"Strand": "GGGAGUUCUACAGUCCGACGAUCAACAUGGAGGUGAUAUGUUACACAGUAAACACCUGCCAACCCCUGUACUCCCCUUUGCUCCAUCAGUUAUCAGGAAGGAGAACUAAGGAGGGAGGAAGCUUAUUAGGUUCUGGAAUUCUCGGGUGCCAA", "RBNS enrichment (R)": 0.299}
{"Strand": "GGGAGUUCUACAGUCCGACGAUCAGUCUGGGGCACAAGCUGAGCCGCUGACUAGCAAUGCCUACAGCCUUUCCCAAUGCCCUUGCCUGCCCUGGAGCUUCUAGGGCCACCUCUAGCAUCUGGAGACCGAAUAUUGGAAUUCUCGGGUGCCAA", "RBNS enrichment (R)": 0.575}
{"Strand": "GGGAGUUCUACAGUCCGACGAUCUACGUUGUGAGUCUGUUAUCUGUCCUAUCGCGUUUUUUAAAUGACUUUUUAUUCUUUAUCAUAGCUAAGUAAAUACCAAAAAAAAAAAAAAGCUUUGUAGGACACUUGUAUGGAAUUCUCGGGUGCCAA", "RBNS enrichment (R)": 0.532}
{"data": "Other studies, line by line"}
{"Molecule": "PhoQ, residues 284 288 289 292 302 303 AGCYAI", "target": "PhoP, residues 12 14 15 18 19 NIMAP (Escherichia coli, UniProt P23836)", "assay": "Sort-seq, item: YFP reporter", "test system": "E. coli", "conditions": "PhoQ-PhoP variant library, together with: 10 µM Mg2+", "how to read": "baseline: high Mg2+ state, higher = stronger signaling", "quantity": "fold induction", "result": 0.669}
{"note": "Excerpt of the above (sample 3):"}
{"Strand": "GGGAGUUCUACAGUCCGACGAUCAGUCUGGGGCACAAGCUGAGCCGCUGACUAGCAAUGCCUACAGCCUUUCCCAAUGCCCUUGCCUGCCCUGGAGCUUCUAGGGCCACCUCUAGCAUCUGGAGACCGAAUAUUGGAAUUCUCGGGUGCCAA", "RBNS enrichment (R)": 0.575}
